Results of several laboratories.
Parts stem from different laboratories: compare values within a part only. Positions count from the first letter of the parent shown.

Sample 1 — target: CCNF, cyclin fold, Cln2 fusion (human); technique: yeast growth competition, sequencing; matrix: yeast; setting: strong parent motif; baseline: not given; direction: higher = stronger binding
Starting sequence: RBL1 docking peptide (human); GSAKRRLFGEDPP
`GSAKRRLFTEDPP [G9T]`: “normalised enrichment score” 7.04.
For `GSAKRRLFGEDPI [P13I]`, “normalised enrichment score” read 7.96.
`YSAKRRLFGEDPP [G1Y]` — result for “normalised enrichment score”: 9.39.

Sample 2 — target: NFE2L1, bZIP domain (human); technique: DHFR protein complementation; matrix: yeast; baseline: wild-type JUN-FOS pair; direction: higher = stronger binding
Setting: single substitutions, most at no-binding floor
Starting sequence: JUN, bZIP domain (human); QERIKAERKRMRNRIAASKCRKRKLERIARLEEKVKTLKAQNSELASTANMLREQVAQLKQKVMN; partner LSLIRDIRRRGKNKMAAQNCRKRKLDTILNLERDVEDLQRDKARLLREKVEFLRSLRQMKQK
For `V56W`, the binding fitness was -1.52 natural log.
The binding fitness of `R30W` is reported as -1.41 natural log.
`E33F` gave a binding fitness of -1.39 natural log.

Sample 3 — technique: universal PBM; form: double-stranded DNA, one strand shown; matrix: in vitro; tested at: 600 nM; direction: higher = stronger binding
Target: Sal-like protein 4, full length isoform A (SALL4, Homo sapiens, UniProt Q9UJQ4, residues 1-1053)
Chain of UniProt Q9UJQ4 (whole entry, looked up): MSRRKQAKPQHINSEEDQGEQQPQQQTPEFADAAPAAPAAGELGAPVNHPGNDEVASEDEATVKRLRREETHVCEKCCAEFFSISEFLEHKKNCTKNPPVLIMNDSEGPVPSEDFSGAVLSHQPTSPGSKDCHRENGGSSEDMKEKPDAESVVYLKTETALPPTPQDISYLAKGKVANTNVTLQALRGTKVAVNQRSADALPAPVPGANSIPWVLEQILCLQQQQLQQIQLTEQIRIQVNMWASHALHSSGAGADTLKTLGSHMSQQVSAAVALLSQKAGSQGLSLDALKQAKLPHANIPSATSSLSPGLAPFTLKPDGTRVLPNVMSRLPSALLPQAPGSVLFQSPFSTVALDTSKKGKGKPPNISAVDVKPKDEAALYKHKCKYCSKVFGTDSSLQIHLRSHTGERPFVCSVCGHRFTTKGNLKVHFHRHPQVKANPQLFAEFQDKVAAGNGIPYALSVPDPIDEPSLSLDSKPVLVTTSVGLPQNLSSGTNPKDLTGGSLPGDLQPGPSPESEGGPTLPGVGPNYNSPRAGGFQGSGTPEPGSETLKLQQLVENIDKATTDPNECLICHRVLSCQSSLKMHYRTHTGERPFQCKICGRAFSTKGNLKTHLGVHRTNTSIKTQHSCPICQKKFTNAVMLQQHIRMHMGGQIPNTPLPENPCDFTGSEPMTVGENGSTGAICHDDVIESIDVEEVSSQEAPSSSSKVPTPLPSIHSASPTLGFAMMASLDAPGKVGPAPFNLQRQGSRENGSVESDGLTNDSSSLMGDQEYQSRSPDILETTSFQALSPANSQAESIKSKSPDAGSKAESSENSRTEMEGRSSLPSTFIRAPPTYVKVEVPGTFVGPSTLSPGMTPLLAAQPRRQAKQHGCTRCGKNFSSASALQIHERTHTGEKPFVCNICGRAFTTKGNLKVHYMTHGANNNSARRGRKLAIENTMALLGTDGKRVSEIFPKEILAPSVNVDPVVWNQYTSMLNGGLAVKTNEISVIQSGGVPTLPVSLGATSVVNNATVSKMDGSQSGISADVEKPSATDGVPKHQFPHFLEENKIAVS
Setting: 8-mer, flanks averaged, mean of replicates
For `GAACGCCA`, the E-score was -0.239.
`CGTAACAG` gave an E-score of 0.0595.
`GTGTGAAA` has an E-score of 0.258.
`ACTCGGGG` has an E-score of -0.263.
`CTAGCATC` has an E-score of -0.0423.
`GCTAACGA` gave an E-score of -0.041.

Other studies, line by line
`PhoQ, residues 284 288 289 292 302 303 SSTLLI` gave a fold induction of 4.25 (PhoP, residues 12 14 15 18 19 NNFVT (Escherichia coli, UniProt P23836); Sort-seq, refers to: YFP reporter; E. coli; PhoQ-PhoP variant library, together with: 10 µM Mg2+; baseline: high Mg2+ state, higher = stronger signaling).

Excerpt of the above (sample 2):
For `V56W`, the binding fitness was -1.52 natural log.
